Measurements gathered from unrelated publications.
Each line is one published result; not all experiments were run side by side. ± gives the spread as reported.

`NC1(C(=O)N[C@@H](CCO)c2ccc(Cl)cc2)CCN(c2nc[nH]c3nccc2-3)CC1`: “apparent steady-state volume of distribution” 265 L (population PK model; human; dose not given).
`COC(=O)N[C@@H](C)CNc1nccc(-c2cn(C(C)C)nc2-c2cc(Cl)cc(NS(C)(=O)=O)c2F)n1` — result for “apparent volume Vz/F”: 95.6 ± 49.8 L (human, plasma; oral, 50 mg, with: posaconazole 400 mg twice daily; arithmetic mean).
Under “apparent clearance (CL/F)”, `CNC(=O)c1c(C)oc2cc(Oc3ncnc4cc(OC)c(OC)cc34)ccc12` is recorded as 0.81 L/h (population PK base model; human).
For `O=C(O)CCC(=O)O.[2H]C([2H])([2H])Oc1cc(C)c2[nH]ccc2c1CN1CC[C@@H](C2CC2)C[C@H]1c1ccc(C(=O)O)cc1`, “apparent clearance (CL/F)” read 1.61 L/h (healthy humans, fasted, plasma; oral, 200 mg, single dose).
For `Cc1ccc(C)c(OCCCC(C)(C)C(=O)O)c1`, “apparent clearance (CL/F) increase” read 69% (human, plasma; oral, dose not given, with: lopinavir-ritonavir; reference: without lopinavir-ritonavir).
`C=CC(=O)N(C)CCOc1c(N)ncnc1-c1cc(F)cc(NC(=O)c2ccc(C3CC3)cc2F)c1C` — result for “apparent clearance CL/F”: 523 L/h (human, whole blood; oral, 30 mg, single ascending dose).
For `O=C(Nc1nc2cccc(-c3ccc(CN4CCS(=O)(=O)CC4)cc3)n2n1)C1CC1`, “apparent peripheral volume” read 35.1 L (population PK bootstrap median; human; oral, dose not given).
`NC[C@@]1(CC(=O)O)[C@@H]2CC[C@H]3C[C@@H]2[C@@H]1C3` — result for “apparent volume of distribution”: 56.9 L (human, normal renal function, plasma; oral, 20 mg single dose, geometric mean).
`COc1cc(C(=O)NC2CCN(C)CC2)c(F)cc1Nc1ncc(C(F)(F)F)c(Oc2cccc3c2C(=O)N(C)C3)n1`: “apparent oral clearance CL/F” 266 mL/min (human patients, plasma; oral, 50 mg single dose, geometric mean).
With `NC(=O)N1c2ccccc2CC(=O)c2ccccc21` the apparent clearance was 198 L/h (population PK modelling; human patients, plasma; oral, joint parent-metabolite model).
`CC(C)(C)OC[C@@H]1C(=O)NCCN1C(=O)C[C@H](N)Cc1cc(F)c(F)cc1F` — result for “apparent oral clearance at steady state”: 55.1 ± 5.46 L/h (human, plasma; oral, dose not given, 2, compound alone).
`CCCOc1ccc([C@H]2CNC(=O)N2c2ccc3[nH]cnc3c2)cc1`: “apparent terminal half-life” 3.4 h (human volunteers fasted, plasma; oral capsule, 200 mg single dose, crossover, geometric mean).
For `CCCn1cc(C)c2c(=O)[nH]c(-c3cc(S(=O)(=O)N4CCN(CC)CC4)ccc3OCC)nc21`, “apparent volume of distribution (Vd/F)” read 4820 ± 2030 L (LC-MS/MS; human, plasma; oral, 100 mg, crossover trial, alone).
`Cc1nc(Nc2ncc(C(=O)Nc3c(C)cccc3Cl)s2)cc(N2CCN(CCO)CC2)n1` — result for “apparent oral clearance”: 4020 ± 2980 mL/min/m² (human patients, plasma; 65 mg/m^2, day 42).
For `C[C@@H](Oc1ccc(S(C)(=O)=O)cc1C(=O)N1C[C@@H]2C[C@]2(c2cc(C(F)(F)F)on2)C1)C(F)(F)F`, “apparent clearance at steady state” read 148 mL/min (young healthy humans, plasma; oral, 75 mg once daily, multiple dosing).
`C[C@@]1(c2cc(NC(=O)c3ccc(C#N)cn3)ccc2F)C=CSC(N)=N1` — result for “apparent clearance CL/F”: 12 L/h (elderly humans, both sexes, plasma; oral, 3 mg single dose, mean).
For `Cn1cc(-c2cn3nccc3c(-c3cnn([C@]4(CC#N)C[C@@H](C#N)C4)c3)n2)cn1`, “apparent volume Vz/F” read 226 L (healthy humans fasted, plasma; 10 mg single dose, geometric mean).
`CC[C@@H]1CN(C(=O)NCC(F)(F)F)C[C@@H]1c1cnc2cnc3[nH]ccc3n12` — result for “apparent peripheral volume (Vp/F)”: 68.7 L (population PK modelling; human; oral, dose not given, final model, outliers re-estimated).
`NC(=S)NN=Cc1ncccc1N`: “apparent oral clearance” 164 L/h (human smokers, plasma; oral, geometric mean, total).

Repeated from above:
`COc1cc(C(=O)NC2CCN(C)CC2)c(F)cc1Nc1ncc(C(F)(F)F)c(Oc2cccc3c2C(=O)N(C)C3)n1`: “apparent oral clearance CL/F” 266 mL/min (human patients, plasma; oral, 50 mg single dose, geometric mean).
With `NC(=O)N1c2ccccc2CC(=O)c2ccccc21` the apparent clearance was 198 L/h (population PK modelling; human patients, plasma; oral, joint parent-metabolite model).
`CC(C)(C)OC[C@@H]1C(=O)NCCN1C(=O)C[C@H](N)Cc1cc(F)c(F)cc1F` — result for “apparent oral clearance at steady state”: 55.1 ± 5.46 L/h (human, plasma; oral, dose not given, 2, compound alone).
